# Measured values pooled from the literature.
# Lines come from different studies, so protocols differ. Numbers after ± are the reported error.
# EGFR L861Q: Epidermal growth factor receptor (EGFR, Homo sapiens, UniProt P00533, L861Q)
# EGFR: Epidermal growth factor receptor (EGFR, Homo sapiens, UniProt P00533)
SMILES,target,test,setting,how to read,remaining activity [%]
O=C(NC1CCC1)c1ccc2nc(-c3cccc(NS(=O)(=O)NCCN4CCCCC4)c3)cn2c1,"Epidermal growth factor receptor (EGFR, Homo sapiens, UniProt P00533, T790M)",enzyme activity,10 µM,,100
CC(C)Oc1cc(N2CCN(C)CC2)ccc1Nc1nc(N)n(C(=O)NCc2ccccc2S(=O)(=O)C(C)C)n1,"Epidermal growth factor receptor (EGFR, Homo sapiens, UniProt P00533, G719C)",enzyme activity,10 µM,baseline: control,3.6
COc1cc(-c2cncc3c2CN(C)Cc2cc(N4CCNCC4)ccc2-3)cc(OC)c1OC,EGFR L861Q,kinase activity,"1 µM, with: ATP 10 µM",baseline: DMSO control,48
C=CC(=O)N1CCC([C@@H]2CCNc3c(C(N)=O)c(-c4ccc(Oc5ccccc5)cc4)nn32)CC1,EGFR,"kinase activity, inhibitor, HotSpot radiometric","100 nM, with: ATP 10 µM",,65.5 ± 0.9
Cc1cc(Nc2cc(N3CCN(C)CC3)nc(Sc3ccc(NC(=O)C4CC4)cc3)n2)[nH]n1,"Epidermal growth factor receptor (EGFR, Homo sapiens, UniProt P00533, L858R/T790M)",kinase activity,"0.03 µM, T790M/L858R",baseline: control,95
COc1cc(N2CCN(C)CC2)ccc1Nc1nc(N)n(C(=O)NCc2c(Cl)cccc2Cl)n1,EGFR,enzyme activity,10 µM,baseline: control,24
c1cnc2ccc(Nc3nc(NC4CC4)c4nc[nH]c4n3)cc2c1,EGFR,"kinase activity, inhibitor, SelectScreen kinase profiling",1 µM,baseline: control,108
COc1ccc(F)cc1C(=O)NCc1ccc(-c2nn([C@@H](C)C(F)(F)F)c(N)c2C(N)=O)cc1,EGFR,"kinase activity, inhibitor, HotSpot radiometric","1000 nM, with: ATP at Km",,60.6 ± 0.6
Cc1[nH]c(/C=C2\C(=O)Nc3ccc(F)cc32)c(C)c1C(=O)N[C@H]1CCN(C(=O)N(C)C)C1,EGFR,kinase activity,1 µM,baseline: control,105
COc1cc(N2CCN(C)CC2)ccc1Nc1nc(N)n(C(=O)NCc2ccccc2S(=O)(=O)C(C)C)n1,"Epidermal growth factor receptor (EGFR, Homo sapiens, UniProt P00533, G719S)",enzyme activity,10 µM,baseline: control,1.8
C=CC(=O)N1CCC[C@@H](n2nc(-c3ccc(Oc4ccccc4)cc3)c3c(N)ncnc32)C1,EGFR,"kinase activity, inhibitor, HotSpot radiometric","100 nM, with: ATP 10 µM",,13.6 ± 1.7
COc1cc(N2CCN(C)CC2)ccc1Nc1nc(N)n(C(=S)NCc2c(Cl)cccc2Cl)n1,"Epidermal growth factor receptor (EGFR, Homo sapiens, UniProt P00533, A750P/del747-749)",enzyme activity,10 µM,baseline: control,1.4
CCCOc1ccc(OC)c(F)c1C(=O)c1ccc(C(=O)N[C@@H]2CNC[C@H]2NC(=O)c2ccc3[nH]ncc3c2)cc1,EGFR L861Q,enzyme activity,10 µM,,63

# Repeated from above:
SMILES,target,test,setting,how to read,remaining activity [%]
COc1cc(N2CCN(C)CC2)ccc1Nc1nc(N)n(C(=S)NCc2c(Cl)cccc2Cl)n1,"Epidermal growth factor receptor (EGFR, Homo sapiens, UniProt P00533, A750P/del747-749)",enzyme activity,10 µM,baseline: control,1.4
CCCOc1ccc(OC)c(F)c1C(=O)c1ccc(C(=O)N[C@@H]2CNC[C@H]2NC(=O)c2ccc3[nH]ncc3c2)cc1,EGFR L861Q,enzyme activity,10 µM,,63
